Published values pooled from the literature.
Compare with care: the assays were run in different laboratories.
NR3C1: Glucocorticoid receptor (NR3C1, Homo sapiens, UniProt P04150)

Sequences of proteins named here, by UniProt entry; tags and fusion partners are left off. Residues count along the entry.
UniProt P04150, whole entry: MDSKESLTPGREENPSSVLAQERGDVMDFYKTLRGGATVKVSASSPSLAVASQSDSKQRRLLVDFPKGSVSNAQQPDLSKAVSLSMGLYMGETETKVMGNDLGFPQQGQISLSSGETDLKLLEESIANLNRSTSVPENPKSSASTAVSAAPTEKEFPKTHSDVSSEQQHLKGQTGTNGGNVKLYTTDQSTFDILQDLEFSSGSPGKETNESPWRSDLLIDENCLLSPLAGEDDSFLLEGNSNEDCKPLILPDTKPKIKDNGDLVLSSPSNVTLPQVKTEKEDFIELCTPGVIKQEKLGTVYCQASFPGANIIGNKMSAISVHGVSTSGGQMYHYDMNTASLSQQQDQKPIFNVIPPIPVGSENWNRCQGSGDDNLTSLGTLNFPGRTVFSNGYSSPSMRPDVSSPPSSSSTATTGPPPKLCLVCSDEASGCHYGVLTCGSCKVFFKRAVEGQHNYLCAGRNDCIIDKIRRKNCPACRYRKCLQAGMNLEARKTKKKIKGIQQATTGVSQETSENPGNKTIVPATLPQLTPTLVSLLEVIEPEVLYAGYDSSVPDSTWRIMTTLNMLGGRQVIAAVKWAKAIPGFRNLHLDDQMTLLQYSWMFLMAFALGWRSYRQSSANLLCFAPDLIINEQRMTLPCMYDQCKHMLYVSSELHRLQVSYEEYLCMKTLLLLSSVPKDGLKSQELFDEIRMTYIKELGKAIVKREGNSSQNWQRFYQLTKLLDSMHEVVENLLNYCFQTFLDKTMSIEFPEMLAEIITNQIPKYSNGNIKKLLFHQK
UniProt P08631, whole entry: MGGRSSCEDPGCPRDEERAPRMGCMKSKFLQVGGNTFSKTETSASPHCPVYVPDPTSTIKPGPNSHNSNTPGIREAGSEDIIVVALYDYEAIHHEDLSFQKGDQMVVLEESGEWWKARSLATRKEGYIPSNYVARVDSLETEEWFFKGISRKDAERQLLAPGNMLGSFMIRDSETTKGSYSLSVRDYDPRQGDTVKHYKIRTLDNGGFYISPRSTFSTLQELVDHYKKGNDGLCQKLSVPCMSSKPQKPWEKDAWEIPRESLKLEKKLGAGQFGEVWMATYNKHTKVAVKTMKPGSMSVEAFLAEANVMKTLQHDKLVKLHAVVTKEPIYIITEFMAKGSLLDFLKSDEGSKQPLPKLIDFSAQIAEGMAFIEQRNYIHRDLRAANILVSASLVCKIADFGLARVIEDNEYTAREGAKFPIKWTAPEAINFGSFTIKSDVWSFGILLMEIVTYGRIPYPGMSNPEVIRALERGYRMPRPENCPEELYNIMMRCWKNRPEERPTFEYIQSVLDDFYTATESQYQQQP
UniProt Q7L7X3, whole entry: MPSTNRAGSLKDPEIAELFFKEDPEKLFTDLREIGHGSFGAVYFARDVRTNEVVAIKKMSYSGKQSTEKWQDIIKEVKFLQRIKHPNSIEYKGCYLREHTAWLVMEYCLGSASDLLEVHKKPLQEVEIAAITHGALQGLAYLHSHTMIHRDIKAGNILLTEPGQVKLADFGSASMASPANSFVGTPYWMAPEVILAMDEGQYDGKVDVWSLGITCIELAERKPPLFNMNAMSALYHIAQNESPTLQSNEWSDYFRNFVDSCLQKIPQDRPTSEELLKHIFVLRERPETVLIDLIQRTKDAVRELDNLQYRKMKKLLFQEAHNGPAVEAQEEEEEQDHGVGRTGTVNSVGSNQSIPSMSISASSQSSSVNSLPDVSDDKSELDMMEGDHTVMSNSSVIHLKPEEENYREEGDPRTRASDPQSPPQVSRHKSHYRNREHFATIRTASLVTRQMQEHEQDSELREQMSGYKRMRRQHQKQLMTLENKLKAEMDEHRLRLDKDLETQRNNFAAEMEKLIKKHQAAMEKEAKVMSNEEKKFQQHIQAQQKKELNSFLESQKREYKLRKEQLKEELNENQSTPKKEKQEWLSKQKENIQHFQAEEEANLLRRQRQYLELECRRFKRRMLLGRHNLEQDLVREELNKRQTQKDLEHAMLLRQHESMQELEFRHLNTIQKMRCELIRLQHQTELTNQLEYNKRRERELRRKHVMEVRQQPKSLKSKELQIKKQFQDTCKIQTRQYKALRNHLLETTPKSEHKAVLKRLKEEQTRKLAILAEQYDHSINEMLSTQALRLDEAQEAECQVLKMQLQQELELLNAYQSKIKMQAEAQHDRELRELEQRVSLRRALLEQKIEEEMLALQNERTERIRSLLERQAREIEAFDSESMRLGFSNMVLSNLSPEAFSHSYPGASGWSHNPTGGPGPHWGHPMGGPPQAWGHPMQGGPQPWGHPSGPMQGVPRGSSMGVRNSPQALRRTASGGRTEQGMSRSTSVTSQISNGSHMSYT
UniProt Q04771, 21-509 R206H limits assumed: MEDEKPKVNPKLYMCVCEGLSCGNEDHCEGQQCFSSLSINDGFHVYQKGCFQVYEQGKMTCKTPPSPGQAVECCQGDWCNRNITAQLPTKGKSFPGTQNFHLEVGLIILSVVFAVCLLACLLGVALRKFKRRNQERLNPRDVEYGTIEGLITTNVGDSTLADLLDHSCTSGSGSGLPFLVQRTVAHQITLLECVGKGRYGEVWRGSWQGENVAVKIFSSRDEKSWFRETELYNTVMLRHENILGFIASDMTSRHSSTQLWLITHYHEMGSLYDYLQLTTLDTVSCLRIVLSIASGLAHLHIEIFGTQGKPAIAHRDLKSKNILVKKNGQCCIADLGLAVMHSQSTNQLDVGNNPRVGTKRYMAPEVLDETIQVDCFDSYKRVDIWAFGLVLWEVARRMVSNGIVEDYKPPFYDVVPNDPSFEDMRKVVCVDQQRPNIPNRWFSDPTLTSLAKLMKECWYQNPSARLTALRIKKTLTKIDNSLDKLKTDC
UniProt P31749, whole entry: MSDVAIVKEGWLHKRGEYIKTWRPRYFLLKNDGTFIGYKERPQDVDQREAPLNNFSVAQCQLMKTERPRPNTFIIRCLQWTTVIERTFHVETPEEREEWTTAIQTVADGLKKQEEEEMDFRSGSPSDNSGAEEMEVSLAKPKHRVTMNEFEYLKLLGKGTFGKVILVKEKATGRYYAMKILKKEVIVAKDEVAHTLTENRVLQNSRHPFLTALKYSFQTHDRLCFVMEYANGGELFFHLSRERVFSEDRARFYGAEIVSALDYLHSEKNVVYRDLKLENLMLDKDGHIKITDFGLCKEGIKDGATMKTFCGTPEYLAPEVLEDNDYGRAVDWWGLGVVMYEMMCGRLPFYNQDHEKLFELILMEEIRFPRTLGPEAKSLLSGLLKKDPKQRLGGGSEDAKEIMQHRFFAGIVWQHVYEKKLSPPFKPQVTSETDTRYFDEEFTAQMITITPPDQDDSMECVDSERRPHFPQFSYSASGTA
UniProt P18031, whole entry: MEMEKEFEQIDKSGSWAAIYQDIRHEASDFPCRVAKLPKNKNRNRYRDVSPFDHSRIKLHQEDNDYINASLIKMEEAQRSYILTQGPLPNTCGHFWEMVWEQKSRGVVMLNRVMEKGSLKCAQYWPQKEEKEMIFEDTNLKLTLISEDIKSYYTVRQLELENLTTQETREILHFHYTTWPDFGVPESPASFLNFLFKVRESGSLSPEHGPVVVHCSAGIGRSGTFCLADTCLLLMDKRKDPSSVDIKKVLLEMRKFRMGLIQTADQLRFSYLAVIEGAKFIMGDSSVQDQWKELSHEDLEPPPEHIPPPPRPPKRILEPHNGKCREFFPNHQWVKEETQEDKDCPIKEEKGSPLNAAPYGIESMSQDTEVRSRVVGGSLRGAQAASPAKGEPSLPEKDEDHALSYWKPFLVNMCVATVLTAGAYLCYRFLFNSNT
UniProt P51617, whole entry: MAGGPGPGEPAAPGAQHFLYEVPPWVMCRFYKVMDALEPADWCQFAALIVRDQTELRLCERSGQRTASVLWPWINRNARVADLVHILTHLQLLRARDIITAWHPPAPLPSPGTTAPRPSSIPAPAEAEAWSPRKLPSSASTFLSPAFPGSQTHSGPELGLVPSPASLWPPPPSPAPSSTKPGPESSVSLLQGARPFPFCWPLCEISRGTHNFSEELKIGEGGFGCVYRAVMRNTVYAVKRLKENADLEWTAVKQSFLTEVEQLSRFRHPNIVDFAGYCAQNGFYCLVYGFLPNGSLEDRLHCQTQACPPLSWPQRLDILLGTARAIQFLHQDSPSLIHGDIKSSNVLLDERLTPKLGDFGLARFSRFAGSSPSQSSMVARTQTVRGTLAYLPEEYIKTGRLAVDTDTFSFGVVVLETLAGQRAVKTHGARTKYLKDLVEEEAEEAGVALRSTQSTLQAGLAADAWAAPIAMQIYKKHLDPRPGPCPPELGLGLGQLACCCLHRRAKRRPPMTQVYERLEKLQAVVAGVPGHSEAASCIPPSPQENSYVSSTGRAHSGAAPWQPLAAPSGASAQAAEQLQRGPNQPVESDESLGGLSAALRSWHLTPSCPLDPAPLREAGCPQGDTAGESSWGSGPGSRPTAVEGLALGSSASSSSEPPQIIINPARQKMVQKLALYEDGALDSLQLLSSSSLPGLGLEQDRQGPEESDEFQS
UniProt P54829, whole entry: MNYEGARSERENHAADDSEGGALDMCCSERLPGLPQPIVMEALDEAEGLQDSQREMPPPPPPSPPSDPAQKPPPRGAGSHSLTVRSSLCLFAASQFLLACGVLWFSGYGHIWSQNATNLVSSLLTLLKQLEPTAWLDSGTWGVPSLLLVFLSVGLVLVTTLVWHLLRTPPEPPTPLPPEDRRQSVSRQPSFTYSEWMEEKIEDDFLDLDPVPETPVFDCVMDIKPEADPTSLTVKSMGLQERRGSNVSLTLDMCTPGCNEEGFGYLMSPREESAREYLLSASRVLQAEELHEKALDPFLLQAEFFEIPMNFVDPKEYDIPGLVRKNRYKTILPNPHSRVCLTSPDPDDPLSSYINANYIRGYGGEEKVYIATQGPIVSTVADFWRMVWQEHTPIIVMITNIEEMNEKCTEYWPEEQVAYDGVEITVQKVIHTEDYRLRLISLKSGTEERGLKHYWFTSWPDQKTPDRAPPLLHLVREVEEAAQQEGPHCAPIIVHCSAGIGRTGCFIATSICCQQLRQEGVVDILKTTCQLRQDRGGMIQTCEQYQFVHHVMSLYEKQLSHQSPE
UniProt Q15256, 22-657 limits assumed: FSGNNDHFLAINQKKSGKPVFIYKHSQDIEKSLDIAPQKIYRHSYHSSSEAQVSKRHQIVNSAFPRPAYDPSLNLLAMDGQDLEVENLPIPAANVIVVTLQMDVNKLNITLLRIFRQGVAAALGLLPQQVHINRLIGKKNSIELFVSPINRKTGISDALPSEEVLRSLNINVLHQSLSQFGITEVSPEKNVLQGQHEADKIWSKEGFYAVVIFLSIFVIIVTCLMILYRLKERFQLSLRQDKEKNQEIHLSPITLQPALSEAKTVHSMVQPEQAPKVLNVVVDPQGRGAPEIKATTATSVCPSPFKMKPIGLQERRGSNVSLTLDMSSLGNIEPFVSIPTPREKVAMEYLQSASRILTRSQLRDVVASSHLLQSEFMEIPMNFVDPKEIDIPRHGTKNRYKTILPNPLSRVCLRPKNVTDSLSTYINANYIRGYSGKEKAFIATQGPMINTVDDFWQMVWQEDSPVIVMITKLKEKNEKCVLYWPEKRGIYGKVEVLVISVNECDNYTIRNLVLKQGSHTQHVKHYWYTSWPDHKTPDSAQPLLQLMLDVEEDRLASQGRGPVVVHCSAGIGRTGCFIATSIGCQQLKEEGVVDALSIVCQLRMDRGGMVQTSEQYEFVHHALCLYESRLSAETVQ
UniProt P29350, whole entry: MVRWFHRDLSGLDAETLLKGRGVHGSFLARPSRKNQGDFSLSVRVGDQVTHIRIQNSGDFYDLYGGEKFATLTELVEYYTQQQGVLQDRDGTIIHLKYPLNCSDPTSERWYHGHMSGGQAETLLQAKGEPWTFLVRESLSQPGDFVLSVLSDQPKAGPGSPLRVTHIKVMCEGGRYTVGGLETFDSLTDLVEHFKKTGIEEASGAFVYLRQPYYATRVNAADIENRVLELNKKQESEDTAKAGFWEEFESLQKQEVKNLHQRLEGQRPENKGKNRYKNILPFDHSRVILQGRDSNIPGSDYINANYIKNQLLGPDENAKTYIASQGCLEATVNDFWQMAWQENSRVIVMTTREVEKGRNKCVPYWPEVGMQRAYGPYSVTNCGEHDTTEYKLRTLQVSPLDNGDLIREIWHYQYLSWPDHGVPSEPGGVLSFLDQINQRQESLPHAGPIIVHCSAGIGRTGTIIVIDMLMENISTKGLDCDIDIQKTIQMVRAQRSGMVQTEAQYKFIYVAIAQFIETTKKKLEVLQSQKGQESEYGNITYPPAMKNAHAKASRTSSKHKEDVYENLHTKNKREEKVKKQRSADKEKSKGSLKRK

Compound | target | assay | system | conditions | endpoint | value
CCN1CCN(Cc2ccc(NC(=O)c3ccc(C)c(Oc4ncnc5cc(OC)c(OC)cc45)c3)cc2C(F)(F)F)CC1 | HCK (Homo sapiens, UniProt P08631) | enzyme activity, Z'-LYTE | – | together with: ATP at Km | IC50 | 0.16 µM
O=C1C=C(NCCc2cc(Br)c(O)c(Br)c2)C(=O)c2ncccc21 | Moesin (Homo sapiens, UniProt P26038) | phosphorylation, inhibitor, in vitro kinase | – | – | IC50 | 59.5 µM
CN1C(=O)c2ccccc2N(C)c2nc(Nc3ccc(N4CCC(O)CC4)cc3)ncc21 | TAOK1 (Homo sapiens, UniProt Q7L7X3) | kinase activity | – | – | IC50 | < 0.1 µM
COc1cc(-c2nc3ccc(C(=O)NCCCN4CCN(C)C(c5ccccc5)C4)cc3n2C2CCC2)cc(OC)c1OC (stereo not drawn) | ACVR1 (Homo sapiens, UniProt Q04771, R206H) | target engagement, NanoBRET | HEK293 | – | IC50 | 4.28 µM
CN1C/C(=C\c2ccccn2)C(=O)[C@@H](Cc2ccccn2)C1 | AKT1 (Homo sapiens, UniProt P31749) | enzyme activity, inhibitor, Z'-LYTE | – | – | IC50 | > 100 µM
O=c1/c(=C/c2ccc(-c3ccccc3[N+](=O)[O-])o2)sc2nc3cc(Br)cnc3n12 | PTPN1 (Homo sapiens, UniProt P18031) | phosphatase activity, inhibitor | – | together with: OMFP | IC50 | ~100 µM
C[C@]12CC[C@H]3c4ccc(OCC(=O)O)cc4CC[C@@H]3[C@H]1CCC2=O | NR3C1 | nuclear translocation, agonist, enzyme fragment complementation | – | – | EC50 | > 9 µM
COc1cc2ncc(-c3cccc(NC4CCNC4)n3)n2cc1-c1cn[nH]c1 (stereo not drawn) | IRAK1 (Homo sapiens, UniProt P51617) | kinase activity, inhibitor | – | – | IC50 | 0.0016 µM
O=c1/c(=C/c2ccccc2Cl)sc2nc3cc(Br)cnc3n12 | PTPN5 (Homo sapiens, UniProt P54829) | phosphatase activity, inhibitor | – | together with: OMFP | IC50 | > 100 µM
C[C@]12CC[C@H]3c4ccc(O)cc4CC[C@@H]3[C@H]1CC[C@@H]2OC(=O)CCc1ccccc1 | NR3C1 | nuclear translocation, agonist, enzyme fragment complementation | – | – | EC50 | > 9 µM
O=c1/c(=C/c2ccc(-c3cc(Cl)cc(Cl)c3)o2)sc2nc3cc(Br)cnc3n12 | PTPRR (Homo sapiens, UniProt Q15256) | phosphatase activity, inhibitor | – | together with: OMFP | IC50 | ~100 µM
COc1cc(CC(=O)NCC(NC(=O)C(CCCNC(=O)c2cccc(I)c2)NC(=O)C(Cc2ccc(C(F)(F)P(=O)(O)O)cc2)NC(=O)c2ccc(C)c(Br)c2)C(N)=O)ccc1O (stereo not drawn) | PTPN6 (Homo sapiens, UniProt P29350) | enzyme activity | – | 10 µM | inhibition | no inhibition

Some of these lines once more:
Compound | target | assay | system | conditions | endpoint | value
C[C@]12CC[C@H]3c4ccc(OCC(=O)O)cc4CC[C@@H]3[C@H]1CCC2=O | NR3C1 | nuclear translocation, agonist, enzyme fragment complementation | – | – | EC50 | > 9 µM
